{"data": "Measured values pooled from the literature", "note": "A part holds a random share of what one study measured."}
{"data": "Study 1", "target": "Sal-like protein 4, full length isoform B (SALL4, Homo sapiens, UniProt Q9UJQ4-2, residues 1-616)", "technique": "universal PBM", "molecule type": "double-stranded DNA, one strand shown", "sample": "in vitro", "concentration": "not given", "notes": "8-mer, flanks averaged, mean of replicates", "direction": "higher = stronger binding"}
{"Sequence": "ATGCATTG", "E-score": 0.108}
{"Sequence": "CATATAGG", "E-score": 0.248}
{"Sequence": "GACGACTA", "E-score": -0.0479}
{"Sequence": "ACAACGTG", "E-score": 0.0072}
{"Sequence": "AACTGGCG", "E-score": -0.254}
{"Sequence": "CGAAGACA", "E-score": -0.21}
{"Sequence": "ACACATCG", "E-score": 0.0433}
{"Sequence": "CGAGCCTC", "E-score": -0.262}
{"Sequence": "CACTTTGA", "E-score": -0.0905}
{"Sequence": "TCAATAGA", "E-score": 0.16}
{"Sequence": "CTCGGAAA", "E-score": -0.0402}
{"Sequence": "ACCAAAAG", "E-score": 0.201}
{"data": "Study 2", "target": "Ras GTPase-activating protein-binding protein 1, full length (G3BP1, Homo sapiens, UniProt Q13283)", "technique": "RNA Bind-n-Seq", "molecule type": "RNA", "sample": "in vitro", "concentration": "200 nM", "notes": "whole 134-nt RNA, ends assumed", "together with": "150 mM KCl", "reference": "input library", "direction": "higher = stronger binding", "shared flanks, not repeated": "GGGAGUUCUACAGUCCGACGAUC … UGGAAUUCUCGGGUGUCAAGG", "sequence of UniProt Q13283 (whole entry, looked up)": "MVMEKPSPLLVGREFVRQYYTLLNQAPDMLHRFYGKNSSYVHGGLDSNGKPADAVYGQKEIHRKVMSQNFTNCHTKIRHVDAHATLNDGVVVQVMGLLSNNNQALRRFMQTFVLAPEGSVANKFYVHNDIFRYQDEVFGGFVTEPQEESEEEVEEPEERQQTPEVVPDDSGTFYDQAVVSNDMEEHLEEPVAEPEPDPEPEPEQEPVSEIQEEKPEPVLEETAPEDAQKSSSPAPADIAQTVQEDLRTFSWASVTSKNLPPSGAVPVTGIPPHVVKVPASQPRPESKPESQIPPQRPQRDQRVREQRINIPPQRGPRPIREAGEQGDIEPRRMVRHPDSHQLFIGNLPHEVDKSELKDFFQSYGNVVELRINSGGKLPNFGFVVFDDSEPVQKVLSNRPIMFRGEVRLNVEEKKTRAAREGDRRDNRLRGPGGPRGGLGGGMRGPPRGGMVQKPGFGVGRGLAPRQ"}
{"Sequence": "AGUCCUGUGCUACACAUCGUAUGUACCGAAUCGGGGCCCCGGGCCCCGGGGCCCCGGAAAGUAUUAUGUUACGCCGUUCGGAUCUGCACU", "log2 enrichment": 0.374}
{"Sequence": "UGGGAGGUGGAUUUUGUUUAUUUUUUUAGGUCAUUUCCAGGGGUGGGAAUUUUUUUUUAAUAUGUGUCAUGAAUAAAGUUGUUUUUGAAA", "log2 enrichment": 0.0911}
{"Sequence": "GUCCUGUGCUACACAUCGUAUGUACCGAAUCGGCCCCCGGGGCCCCCGGCCCCCGGGGAAAGUAUUAUGUUACGCCGUUCGGAUCUGCAC", "log2 enrichment": -0.731}
{"Sequence": "UAAUUAUGUUUUAUUUUCUUUAAUUGCAGGACUUCAUAGACCUCACGUUGUCGAAGACUCAACGAAAGACUCCAACCGUUAUUCAUAAAC", "log2 enrichment": 0.0671}
{"Sequence": "AGUCCUGUGCUACACAUCGUAUGUACCGAAUCGGGGAAAAAGGGGAGGGGAAAGGGGAAAGUAUUAUGUUACGCCGUUCGGAUCUGCACU", "log2 enrichment": 0.23}
{"Sequence": "AAGUCCUGUGCUACACAUCGUAUGUACCGAAUCGGGGAAAAGGGAAAAGGAAAAGGAAAGUAUUAUGUUACGCCGUUCGGAUCUGCACUU", "log2 enrichment": -0.723}
{"Sequence": "UCCUCAAGUCCUGUGCUACACAUCGUAUGUACCGAAUCGGGUGGUGGGUGGAAAGUAUUAUGUUACGCCGUUCGGAUCUGCACUUCCAGC", "log2 enrichment": 0.04}
{"data": "Study 3", "target": "Prothrombin, mature alpha-thrombin (F2, Homo sapiens, UniProt P00734)", "technique": "aptamer microarray, sandwich", "molecule type": "DNA with 2'F-ANA", "sample": "in vitro", "concentration": "200 nM", "notes": "whole 15-mer aptamer, many near background", "together with": "Cy3 exosite-II aptamer, 400 nM", "direction": "higher = stronger binding", "sequence": "GGTTGGTGTGGTTGG"}
{"Modification": "2'F-ANA at 3 4 6 8 15", "mean fluorescence intensity": "642 a.u."}
{"Modification": "2'F-ANA at 1 2 4 5 6 8 9 12", "mean fluorescence intensity": "119 a.u."}
{"Modification": "2'F-ANA at 4 5 7 8 9 10 11 12 14 15", "mean fluorescence intensity": "46 a.u."}
{"Modification": "2'F-ANA at 2 6 7 9 12 13 14", "mean fluorescence intensity": "126 a.u."}
{"Modification": "2'F-ANA at 1 2 6 7 8 9 11 12 13 14 15", "mean fluorescence intensity": "68.3 a.u."}
{"Modification": "2'F-ANA at 3 4 6 7 8 9 12 14", "mean fluorescence intensity": "323 a.u."}
{"Modification": "2'F-ANA at 1 3 4 5 6 7 8 12 14 15", "mean fluorescence intensity": "96.8 a.u."}
{"Modification": "2'F-ANA at 3 4 5 7 8 10 11", "mean fluorescence intensity": "55.5 a.u."}
{"Modification": "2'F-ANA at 4 6 8 9 10 11 13", "mean fluorescence intensity": "63.6 a.u."}
{"Modification": "2'F-ANA at 1 2 6 7 8 9 10", "mean fluorescence intensity": "70.2 a.u."}
{"Modification": "2'F-ANA at 1 8 9 10 11 12 13 14 15", "mean fluorescence intensity": "52.8 a.u."}
{"Modification": "2'F-ANA at 3 4 5 7 9 11 12 13", "mean fluorescence intensity": "87.7 a.u."}
{"data": "Single results of other studies"}
{"Molecule": "PhoQ, residues 284 288 289 292 302 303 SIHMAM", "target": "PhoP, residues 12 14 15 18 19 LHATL (Escherichia coli, UniProt P23836)", "assay": "Sort-seq, measured: YFP reporter", "test system": "E. coli", "conditions": "PhoQ-PhoP variant library, together with: 10 µM Mg2+", "how to read": "reference: high Mg2+ state, higher = stronger signaling", "measurement": "fold induction", "result": 0.651}
{"note": "Repeated from above (study 1):"}
{"Sequence": "GACGACTA", "E-score": -0.0479}
{"Sequence": "TCAATAGA", "E-score": 0.16}
{"Sequence": "CTCGGAAA", "E-score": -0.0402}
{"Sequence": "ACAACGTG", "E-score": 0.0072}
{"Sequence": "CGAAGACA", "E-score": -0.21}
